Measured values of several laboratories.
A part holds a random share of what one study measured. Substitutions count along the parent as printed.
Chain of UniProt O15294 (whole entry, looked up): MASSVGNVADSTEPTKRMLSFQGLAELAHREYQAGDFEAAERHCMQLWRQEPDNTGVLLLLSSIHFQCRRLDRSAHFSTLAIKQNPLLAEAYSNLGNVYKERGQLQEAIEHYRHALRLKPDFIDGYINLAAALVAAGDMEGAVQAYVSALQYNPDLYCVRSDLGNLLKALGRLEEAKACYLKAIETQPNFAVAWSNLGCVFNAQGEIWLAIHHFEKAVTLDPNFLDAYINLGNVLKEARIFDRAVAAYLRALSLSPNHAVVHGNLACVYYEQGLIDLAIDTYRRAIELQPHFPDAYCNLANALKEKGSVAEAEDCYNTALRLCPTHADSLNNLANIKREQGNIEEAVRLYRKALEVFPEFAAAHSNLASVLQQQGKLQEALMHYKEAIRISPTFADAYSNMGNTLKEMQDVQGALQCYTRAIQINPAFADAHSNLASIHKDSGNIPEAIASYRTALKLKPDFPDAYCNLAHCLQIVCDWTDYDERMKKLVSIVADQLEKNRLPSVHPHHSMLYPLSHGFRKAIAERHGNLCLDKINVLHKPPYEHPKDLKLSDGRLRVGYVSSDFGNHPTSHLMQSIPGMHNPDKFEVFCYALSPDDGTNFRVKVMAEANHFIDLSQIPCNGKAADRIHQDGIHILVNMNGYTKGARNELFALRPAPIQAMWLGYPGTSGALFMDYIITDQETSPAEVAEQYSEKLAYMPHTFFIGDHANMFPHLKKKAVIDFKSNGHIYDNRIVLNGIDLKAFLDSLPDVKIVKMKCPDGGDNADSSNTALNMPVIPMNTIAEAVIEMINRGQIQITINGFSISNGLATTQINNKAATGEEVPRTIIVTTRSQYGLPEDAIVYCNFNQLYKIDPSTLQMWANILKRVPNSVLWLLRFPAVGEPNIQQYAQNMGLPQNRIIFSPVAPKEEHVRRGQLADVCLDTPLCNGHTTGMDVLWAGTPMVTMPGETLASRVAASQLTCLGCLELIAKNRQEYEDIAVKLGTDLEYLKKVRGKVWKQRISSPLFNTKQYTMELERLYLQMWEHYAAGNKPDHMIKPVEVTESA

Study 1 — target: CCNE2, cyclin fold, Cln2 fusion (human); technique: yeast growth competition, sequencing; matrix: yeast; setting: weak parent motif; relative to: not given; direction: higher = stronger binding
Starting sequence: CDC6 docking peptide (human); TLKGRRLVFDNQL
For `R6Y`, “normalised enrichment score” read 0.309.
`T1W` — result for “normalised enrichment score”: 1.82.
`F9W`: “normalised enrichment score” 0.605.
Under “normalised enrichment score”, `T1L` is recorded as -0.0421.
`R6E`: “normalised enrichment score” -1.
For `N11R`, “normalised enrichment score” read 0.774.
For `L7R`, “normalised enrichment score” read 0.654.
`G4M`: “normalised enrichment score” 1.02.

Study 2 — technique: RNA Bind-n-Seq; molecule type: RNA; matrix: in vitro; tested at: 1 µM; setting: whole 134-nt RNA, ends assumed; added: 150 mM KCl; relative to: input library; direction: higher = stronger binding
Target: Ras GTPase-activating protein-binding protein 1, C-terminal RGG region (G3BP1, Homo sapiens, UniProt Q13283)
Chain of UniProt Q13283 (whole entry, looked up): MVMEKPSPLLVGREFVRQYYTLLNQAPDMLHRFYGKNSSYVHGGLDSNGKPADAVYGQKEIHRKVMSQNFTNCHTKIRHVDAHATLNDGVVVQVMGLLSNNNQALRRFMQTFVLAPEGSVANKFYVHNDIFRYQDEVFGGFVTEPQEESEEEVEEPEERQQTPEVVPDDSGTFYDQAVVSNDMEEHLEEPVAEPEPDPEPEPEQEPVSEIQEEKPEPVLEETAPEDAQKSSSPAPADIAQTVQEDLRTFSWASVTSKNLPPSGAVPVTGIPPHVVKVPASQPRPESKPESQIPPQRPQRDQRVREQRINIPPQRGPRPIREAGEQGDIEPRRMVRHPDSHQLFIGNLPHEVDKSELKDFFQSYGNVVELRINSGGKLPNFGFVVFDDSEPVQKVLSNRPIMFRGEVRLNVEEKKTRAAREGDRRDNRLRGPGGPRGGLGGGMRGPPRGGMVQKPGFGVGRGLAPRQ
Constant ends, left off below: GGGAGUUCUACAGUCCGACGAUC … UGGAAUUCUCGGGUGUCAAGG
For `AGUCCUGUGCUACACAUCGUAUGUACCGAAUCGGGUUUUUGGGUUUUUUUGGGAGGGAAAGUAUUAUGUUACGCCGUUCGGAUCUGCACU`, the log2 enrichment was 0.192.
`ACCAUGCAGGUGGGCAUCUUUGGGAAGAGGGGCAAGGGGGGGAUAGGGAGGGGGGUAACACUUUGGGAACAGGUGGUCCCAGGUCGUUUC` has a log2 enrichment of -1.58.
The log2 enrichment of `AGUCCUGUGCUACACAUCGUAUGUACCGAAUCGGAAAAAAAGGUUUUUUUGGAAAGGAAAGUAUUAUGUUACGCCGUUCGGAUCUGCACU` is reported as -2.42.
With `UGGCCCUGGUGGCAUGCGGGGAGGAAGAGGUGGCCUCAUGGAUCGUGGUGGUCCCGGUGGAAUGUGCAGAGGUGGCCGUGGUGGAGACAG` the log2 enrichment was 3.25.
`CAUGUUGAAAGACAUGCUUUUAUUUUUUUGUAAAACAAUAUAGGAGCUGUGUCUACUAUUAAAAGUGAAACAUUUUGGCAUGUUUGUUAA` gave a log2 enrichment of -2.47.
For `CAAGUCCUGUGCUACACAUCGUAUGUACCGAAUCGGGGCCCGGGCCCGGGCCCGGAAAGUAUUAUGUUACGCCGUUCGGAUCUGCACUUC`, the log2 enrichment was -2.26.
For `CAAGUCCUGUGCUACACAUCGUAUGUACCGAAUCGGAAAGGAAAAAGGAAAAAGGAAAGUAUUAUGUUACGCCGUUCGGAUCUGCACUUC`, the log2 enrichment was -1.73.
`AGUCCUGUGCUACACAUCGUAUGUACCGAAUCGGCCCCCGGCCCCCGGGCCCCCGGGAAAGUAUUAUGUUACGCCGUUCGGAUCUGCACU` gave a log2 enrichment of -1.74.

Study 3 — technique: RNA Bind-n-Seq; molecule type: RNA; matrix: in vitro; tested at: 365 nM; relative to: no-protein control; direction: higher = stronger binding
Target: RNA binding protein fox-1 homolog 2, RRM domain, GST-SBP tag (RBFOX2, Homo sapiens, UniProt O43251-10, residues 100-194)
Setting: natural RNA segment, single round, ends assumed
Constant ends, left off below: GGGAGUUCUACAGUCCGACGAUC … UGGAAUUCUCGGGUGCCAA
Construct (chain): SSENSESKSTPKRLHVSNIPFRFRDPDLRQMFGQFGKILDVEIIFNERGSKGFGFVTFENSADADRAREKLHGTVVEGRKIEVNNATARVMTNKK
`UCCCACCAGAGGGACGUGUGUGUGCCUGCAGACGGCCCGGGAGCUGUGUGUCUCCGCCAGAGUCACAGCAGUGCCGAGGUGUCCGCGGCAGACCACACAGACCGUCUGAA` — result for “RBNS enrichment (R)”: 0.156.
Under “RBNS enrichment (R)”, `GGGAAGGGUGUGGGUGCUGGGAUGGGGGUGAAUUUCAAGUUGAAACACGAUGAUGUGGUCUGCUUGCUCUCUGCUUAGACAGGCUUUAAGACCAAUUGGAUUUUCAUGGA` is recorded as 1.29.
Under “RBNS enrichment (R)”, `UGGAAACGGAUAACAAAGGGCAGCCUUCCACUUCUGGUAUAAUGGGGGAGCCUCUUUUCUCAGGCUUGACACCUGUCUGAAUAAGAGUGAUUAGAGCCGCAUAAUAUCCC` is recorded as 0.426.
`CUAUGCUCUUUAAUGGAGAAUCUGUUGUCGAAAGGAAGAUGGCCAGAAAUAAGAACUUCAGGACCACGUGGCUUUGCAUAUACAGAGCUUAACAAGCUUUGAGAAACUCA`: “RBNS enrichment (R)” 0.382.
`GGAAGAAAAACCACGCUAAAAAUCAAGCCACUGAAAACAAUUGCCCCCAGGUCUACCCAGCCCCUGGCUGUCCUUGGUCCUGUCUCCCCUCCUGCUGUAUUCAGGGGUGC` — result for “RBNS enrichment (R)”: 0.62.
Under “RBNS enrichment (R)”, `CCACCUUGGCCAGGCCUCCUCGGAGAAGCUUGUCCCCCGUGUGGGAGGGACGGAGCCGGACUGGACAUGGUCACUCAGUACCGCCUGCAGUGUCGCCAUGACUGAUCAUG` is recorded as 0.405.
`GUAAGUGAAAAAGCCGUGACCAACCGUAGUAAAGUAGAUGACAGCUGUUGUAUAUCAGACUUAAUUUUGUCAGCUGAUAGUAUAUAGUGACUGAUGAGUCAGUCACAGUU`: “RBNS enrichment (R)” 0.4.
For `UUUAAGGAGUUCAGAUUUAAUGACCAAAGUCAUACAGAUCAUGGAAUCUGUCGUCGUCUUAUACAGUGUCAGCCUCGAGUACAUUUAUUAACCUUUUGGGGCUGUCAGUU`, “RBNS enrichment (R)” read 0.307.

Single results of other studies
`SQHVFINYHNHTHT` — result for “minimum log2 enrichment ratio”: 2.28 (UDP-N-acetylglucosamine--peptide N-acetylglucosaminyltransferase 110 kDa subunit (OGT, Homo sapiens, UniProt O15294); binding, phage display NGS; peptide; panning round 2; relative to: input library).

Some of these lines once more (study 1):
`R6E`: “normalised enrichment score” -1.
For `N11R`, “normalised enrichment score” read 0.774.
`G4M`: “normalised enrichment score” 1.02.
